# Assay results gathered from unrelated publications.
# Each numbered part is a random draw from the data of one study; scales do not carry over between parts. Changes are numbered by the printed parent chain.

# Set 1
# Target: CCNE1, cyclin fold, Cln2 fusion (human)
# Method: yeast growth competition, sequencing
# Matrix: yeast
# Setting: weak parent motif
# Relative to: not given
# Direction: higher = stronger binding
# Starting sequence: RRM2 docking peptide (human); SKTARRIFQEPTE
Variant,normalised enrichment score
SKTARRIFAEPTE [Q9A],0.74
SKTARRIFQAPTE [E10A],0.333
SKTARAIFQEPTE [R6A],0.242
SATARRIFQEPTE [K2A],0.426
SKAARRIFQEPTE [T3A],0.603
AKTARRIFQEPTE [S1A],0.627

# Set 2
# Target: Centromere-binding protein 1, full length, N-terminal tag (CBF1, Saccharomyces cerevisiae, UniProt P17106, residues 1-351)
# Sequence of UniProt P17106 (whole entry, looked up): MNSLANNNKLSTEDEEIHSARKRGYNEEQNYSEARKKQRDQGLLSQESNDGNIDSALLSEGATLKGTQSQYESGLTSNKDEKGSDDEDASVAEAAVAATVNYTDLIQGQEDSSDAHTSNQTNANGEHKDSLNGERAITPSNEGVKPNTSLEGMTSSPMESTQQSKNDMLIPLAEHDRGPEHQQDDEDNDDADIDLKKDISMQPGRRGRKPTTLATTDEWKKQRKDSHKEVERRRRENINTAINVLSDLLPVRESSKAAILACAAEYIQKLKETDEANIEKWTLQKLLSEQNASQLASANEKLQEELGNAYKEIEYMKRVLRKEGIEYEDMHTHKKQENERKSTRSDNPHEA
# Method: protein-binding microarray
# Molecule type: double-stranded DNA, one strand shown
# Matrix: in vitro
# Concentration: 0.8 µM
# Setting: whole 60-bp probe, no competitor
# Direction: higher = stronger binding
# Shared flanks, not repeated: … GTCTTGATTCGCTTGACGCTGCTG
Oligonucleotide,fluorescence intensity
CCTAACTACTATATACATGTGAAATAGCTTCGTACA,611 a.u.
GAATGTATGTTTTTTAACGTGCATAATTATTAATAG,541 a.u.
GAAACGTGTATCTACATCAGAGCTGCTGAAACTTAG,523 a.u.
CTAAATAGTATAAAACACATCAGATAAACAAAATTC,551 a.u.
CTAAAATGTGGACATGATGACATAAGGTATGAGTTC,568 a.u.
GAATGATTTACTGTTATGGTGATGCTATGTTAGTAG,532 a.u.
CTATAAAGGAACCATGTGATCTTACGTTGATATTTC,3460 a.u.
CTACTACTTTTTTATCACGTCAAAATTTACTTGTTC,633 a.u.
TGTACGAAGCTATACGGCATCAGTATAGTAGTTAGG,501 a.u.
CTATGGGCGAAAAACATCGTGCGTTTACATAATTTC,514 a.u.
GAAAAAAAACGTGATAAGCACGTGGATAATTGTTAG,6530 a.u.
GAATATTCATGCTTGCACGTTATACCTGGCCGGTAG,597 a.u.
GAACCCAAAATATACGGTGTCACCTCCTACTTTTAG,491 a.u.
CTATCAAACCTTCACCTGGTGGTGCGTATCATTTTC,565 a.u.
GAACCTCAGAGGTGTCATCAGAAACACCTCATTTAG,489 a.u.
CTATTACAACATAATCACGCTTTCTTCTAGTTGTTC,750 a.u.
CTATGTGTGTTGGCTCTCACCTGCGCTTGCTGCTTC,521 a.u.
CTATTAATTCTCTCTGATGCTGCCAATAGTCATTTC,564 a.u.
CTACTCAGCGCGCACGTGCGGAGTGATCAGCCTTTC,8090 a.u.
GAACTTCGTCGTCTTCATGATCACCTTTATTGTTAG,544 a.u.

# Set 3
# Target: Sal-like protein 4, full length isoform B (SALL4, Homo sapiens, UniProt Q9UJQ4-2, residues 1-616)
# Method: universal PBM
# Molecule type: double-stranded DNA, one strand shown
# Matrix: in vitro
# Concentration: not given
# Setting: 8-mer, flanks averaged, mean of replicates
# Direction: higher = stronger binding
# Construct (chain): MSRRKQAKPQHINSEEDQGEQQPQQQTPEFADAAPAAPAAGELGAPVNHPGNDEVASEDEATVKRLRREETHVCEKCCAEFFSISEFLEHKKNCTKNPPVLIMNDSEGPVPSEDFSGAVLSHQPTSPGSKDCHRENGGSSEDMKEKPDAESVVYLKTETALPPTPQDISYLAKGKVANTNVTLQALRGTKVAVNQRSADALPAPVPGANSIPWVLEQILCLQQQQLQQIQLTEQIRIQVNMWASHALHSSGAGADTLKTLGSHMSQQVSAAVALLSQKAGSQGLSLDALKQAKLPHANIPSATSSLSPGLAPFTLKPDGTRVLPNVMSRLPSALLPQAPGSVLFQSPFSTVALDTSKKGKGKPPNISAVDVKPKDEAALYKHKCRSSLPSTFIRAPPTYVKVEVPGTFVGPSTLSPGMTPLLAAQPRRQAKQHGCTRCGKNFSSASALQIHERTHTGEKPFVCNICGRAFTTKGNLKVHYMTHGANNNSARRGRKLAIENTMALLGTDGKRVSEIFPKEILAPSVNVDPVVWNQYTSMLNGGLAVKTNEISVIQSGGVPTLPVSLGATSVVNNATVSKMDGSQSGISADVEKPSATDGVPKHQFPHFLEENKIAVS
Oligonucleotide,E-score
ATCTCTAC,0.0126
GCCACGAC,-0.112
GTTTATGA,0.367
CGCCTACA,-0.0223
GAACCAAC,-0.0459
AGGATCCT,-0.102
ATCCGCGG,-0.224
CCTGCACC,-0.307
GCCCGCGC,-0.363
AGCCAAGG,-0.105
AGACTTCA,-0.0634
GAGATCCA,-0.143
GCCCATAC,-0.0322
CCTATGAC,0.0402
AAGAGAAA,0.164
AAATAACT,0.278
ATAGCGTA,0.181
AAACGTTG,-0.0691
ACCAGCTA,-0.0128

# Set 4
# Target: RING finger protein unkempt homolog, zinc fingers 1-6, GST-SBP tag (UNK, Homo sapiens, UniProt Q9C0B0, residues 30-357)
# Method: RNA Bind-n-Seq
# Molecule type: RNA
# Matrix: in vitro
# Concentration: not given
# Setting: RNA with constant flanks, human-mouse chimeric sites, ends assumed
# Relative to: input RNA pool
# Direction: higher = stronger binding
# Shared flanks, not repeated: GGGAGUUCUACAGUCCGACGAUC … CAACAGAGGAUUGAGCAUCA
# Residues (chain): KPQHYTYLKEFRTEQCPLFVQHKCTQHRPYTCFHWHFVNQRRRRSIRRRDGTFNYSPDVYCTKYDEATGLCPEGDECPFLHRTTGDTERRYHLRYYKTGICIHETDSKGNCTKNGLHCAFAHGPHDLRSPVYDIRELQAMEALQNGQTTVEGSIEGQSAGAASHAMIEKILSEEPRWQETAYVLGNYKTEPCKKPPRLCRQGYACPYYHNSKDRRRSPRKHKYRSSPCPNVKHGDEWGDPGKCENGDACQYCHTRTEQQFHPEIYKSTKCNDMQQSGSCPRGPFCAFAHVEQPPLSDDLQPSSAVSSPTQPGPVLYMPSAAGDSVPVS
Oligonucleotide,bound/input enrichment [ratio]
AGCACAACCCCAGCAAAGCUAAGAAAUCCUUGUACAAGUGAACAAAACUGCACCAGCCCAUUUAGCUACAAAAAUGUGCUUAGUCUUACUGACAGAGGAGAAGUAUUCAAUGAACUUGUU,0.416
UCUUUAAAAAAAAAAUUACCUUUUCUGACAGUGCUUUCCCUCCCAUAGAUCCACGUUCAAGCUCAAAGGCCAAAACUUUUGCACGGAUCUGAUGAUGCUGAUGAAGAAAGAUUUCUGAGA,0.531
AAAGAGUGGAUAGAGUGUGCACACGGGAUCGGUGGGACCCGGGCGAAAAAGGAGUGCAAGAUAGAGUAUGAUGAUUUCGAAGAGUGCUUGCUUCGGUAGAAAACGAUGAGGCGAAUGCAU,1.04
GGGGAGAAACCUUACGAAUGCGUUCAGUGUGGGAAAUCCUACAGUCAAAGCUCAAAUCUCUUCAGACAUCAGAGACGACACAAUGCAGAAAAACUUUUGAAUGUUGUGAAGGUUUAAGAA,0.107
UACUCAACUUUCUUGCCACAUUUUGAAUUCCAAGAUGUUAUCCCUCCAGAUGACUUCCUAACGAGUGAUGAAGAGCAAGAUUUGGUUUUAUUUGGAACUAUGAGAGGACAAGUUGUUGGA,0.147
UCGGAUGAGGUGCUGGGUCACUUUUCAUAUCCAGAUCCUUCACAGUGGACAGAUGAAGAAUUAGGUAUCCCUCCUGAUGACGAGGACUGACACUGUAAACUCUCUGGACGAGUAGGAGCA,0.693
CACACACUCUUCUGCGGGACCCUCAUCUUGCAGGCCCGAGCCUACGUGGGACCGCACGUCCUGGCAGUGGUGACUCGCACAGGGUUCUGCACGGCAAAAGGGGGCCUGGUGAGCUCCAUC,0.103
ACCUCCCCCUCCCGCCUCACCCCACCCCCGCUUUUUGAAAGUGUGUUGGCGUUUCUUUUUUUUAGAAAUACAAAGUGAUUACAGUUUCCCCCGCAAGGGUCUAUCGAAGGGCUUGACGGA,0.661
CACACACUCUUCUGCGGGACCCUCAUCUUGCAGGCCCGGGCCUAUGUGGGACCCCGUGUCCUGGCAGUGGUGACCCGGACAGGGUUCUGCACGGCAAAAGGGGGCCUGGUGAGCUCCAUC,0.0375
AGAGAAAUGAGAAAGAAUCUUACACAAGAUGAGAUGCAAAGAAUGUCUACUAGAGUCCUUUUAGCCACUCUUUCCAUUCCUAUUACUCCUGAGCGAACUGAUAUUGCUCGACUUUUGGAU,0.0915
AGAGCCCAGGAUGUUGAUGCUACAAAUCCAAAUUACGAAAUUAUGUGUAUGAUCAGAGACUUCAGAGGGAGCUUGGAUUAUAGACCACUAACAACAGCAGAUCCUAUUGAUGAACAUAGG,0.489

# Set 5
# Target: BATF, bZIP domain (human)
# Method: DHFR protein complementation
# Matrix: yeast
# Setting: single substitutions, most at no-binding floor
# Relative to: wild-type JUN-FOS pair
# Direction: higher = stronger binding
# Starting sequence: JUN, bZIP domain (human); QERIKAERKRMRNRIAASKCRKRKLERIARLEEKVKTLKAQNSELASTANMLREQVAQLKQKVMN; partner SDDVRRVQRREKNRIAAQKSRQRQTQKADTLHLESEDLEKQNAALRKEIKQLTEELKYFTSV
Variant,binding fitness
A46H,-0.0369 natural log
S47T,-0.012 natural log
S47R,0.0572 natural log
K34S,-0.0715 natural log
R30L,0.0909 natural log
E44I,-0.11 natural log
E33F,-0.127 natural log
L45D,-1.19 natural log
Q41M,-0.0577 natural log
K39I,-0.311 natural log
Q41I,0.0335 natural log
A46L,0.019 natural log
E33A,-0.0459 natural log
R53P,-1.12 natural log

# Set 6
# Target: Histone acetyltransferase KAT6A, winged helix 1, GST fusion (KAT6A, Homo sapiens, UniProt Q92794, residues 1-85)
# Method: protein binding microarray
# Molecule type: double-stranded DNA, one strand shown
# Matrix: in vitro
# Concentration: not given
# Setting: 8-mer, flanks averaged, mean of 2 arrays, mostly near background
# Relative to: not given
# Direction: higher = stronger binding
# Residues (chain): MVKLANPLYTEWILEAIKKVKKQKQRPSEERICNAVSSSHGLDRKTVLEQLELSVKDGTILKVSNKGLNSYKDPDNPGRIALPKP
Oligonucleotide,E-score
CCCCTCCA,-0.0295
AGAGATCA,-0.261
ACTACACT,-0.238
CGGAATGA,0.0698
TCATTCCA,-0.0623
ACAGGCCC,-0.0254
CACGCGGA,0.302
ACGCATCC,0.186
CCCTTCGA,-0.0138
ATAACATA,0.016
AAACACCG,0.283
CTACTGTA,-0.0429
CAGCAAAA,-0.109
AATTCTGC,-0.0964
ACGCGGCC,0.305
CCCTACAA,-0.267

# Set 7
# Target: ABI1, truncated, D143A, DHFR fusion (Arabidopsis thaliana)
# Method: DHFR PCA, deep sequencing
# Matrix: yeast
# Setting: methotrexate growth selection, single substitutions
# Together with: (+)-ABA 710 µM
# Relative to: wild-type fitted maximum
# Direction: higher = stronger binding
# Starting sequence: PYL1, truncated, DHFR fusion (Arabidopsis thaliana); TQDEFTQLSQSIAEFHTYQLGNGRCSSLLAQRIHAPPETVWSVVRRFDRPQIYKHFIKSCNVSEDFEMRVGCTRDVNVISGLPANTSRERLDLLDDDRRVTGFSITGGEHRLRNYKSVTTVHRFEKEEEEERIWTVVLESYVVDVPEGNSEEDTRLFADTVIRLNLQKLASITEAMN
Variant,relative binding score [%]
V145A,83.6
E147M,94.1
S27Y,68.4
L138H,72.8
R69H,105
L94H,104
D159Y,41
A158H,70.9
F66R,96.9
L28F,98.6
V136C,104
T86W,106
R99I,40.7
V100N,37.6
T6N,111

# Other studies, line by line
Molecule,target,assay,test system,setting,scale,measurement,result
"PhoQ, residues 284 288 289 292 302 303 TTSMTC","PhoP, residues 12 14 15 18 19 IQFRS (Escherichia coli, UniProt P23836)","Sort-seq, refers to: YFP reporter",E. coli,"PhoQ-PhoP variant library, together with: 10 µM Mg2+","relative to: high Mg2+ state, higher = stronger signaling",fold induction,10.1

# Some of these lines once more (set 2):
Oligonucleotide,fluorescence intensity
GAAACGTGTATCTACATCAGAGCTGCTGAAACTTAG,523 a.u.
CTAAATAGTATAAAACACATCAGATAAACAAAATTC,551 a.u.
CTAAAATGTGGACATGATGACATAAGGTATGAGTTC,568 a.u.
GAATGATTTACTGTTATGGTGATGCTATGTTAGTAG,532 a.u.
CTATAAAGGAACCATGTGATCTTACGTTGATATTTC,3460 a.u.
CTACTACTTTTTTATCACGTCAAAATTTACTTGTTC,633 a.u.
TGTACGAAGCTATACGGCATCAGTATAGTAGTTAGG,501 a.u.
CTATGGGCGAAAAACATCGTGCGTTTACATAATTTC,514 a.u.
GAAAAAAAACGTGATAAGCACGTGGATAATTGTTAG,6530 a.u.
GAATATTCATGCTTGCACGTTATACCTGGCCGGTAG,597 a.u.
GAACCCAAAATATACGGTGTCACCTCCTACTTTTAG,491 a.u.
CTATCAAACCTTCACCTGGTGGTGCGTATCATTTTC,565 a.u.
GAACCTCAGAGGTGTCATCAGAAACACCTCATTTAG,489 a.u.
CTATTACAACATAATCACGCTTTCTTCTAGTTGTTC,750 a.u.
